# Measurements from different studies.
# A part holds a random share of what one study measured.

# Block 1
# Target: PABPC1L2, full length, GST fusion (mouse, UniProt A0ABA7IW68)
# Method: RNAcompete
# Form: RNA
# Medium: in vitro
# Tested at: 20 nM
# Setting: 7-mer, probes averaged, single round
# Baseline: mean of 7-mers
# Direction: higher = stronger binding
# Target sequence (chain): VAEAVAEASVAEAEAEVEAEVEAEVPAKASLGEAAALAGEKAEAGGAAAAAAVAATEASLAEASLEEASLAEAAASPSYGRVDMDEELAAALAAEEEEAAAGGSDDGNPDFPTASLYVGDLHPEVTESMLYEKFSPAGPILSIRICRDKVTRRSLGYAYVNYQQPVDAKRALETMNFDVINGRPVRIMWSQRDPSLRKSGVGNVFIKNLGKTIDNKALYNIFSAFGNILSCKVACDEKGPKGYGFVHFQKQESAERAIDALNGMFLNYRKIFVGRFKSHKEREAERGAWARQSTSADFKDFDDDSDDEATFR
Sequence,7-mer Z-score
AAAUAGC,1.9
GACAAUA,0.3
AUGCGAG,0.0442
UAGCGAC,-0.11
UGCUACA,-0.199
GAGGCUA,0.171
AAGGCUU,0.1
AACCCAA,0.0732
AAGAGUU,0.0388
GCCGCUU,-0.271
GGAAAAA,12
AAUAAUG,0.492
UACACCU,-0.291
UGCUACC,-0.371
GCCGAUU,-0.257
GAUGGCC,-0.0826
GUGCACG,-0.155

# Block 2
# Target: Sal-like protein 4, full length isoform B (SALL4, Homo sapiens, UniProt Q9UJQ4-2, residues 1-616)
# Method: universal PBM
# Form: double-stranded DNA, one strand shown
# Medium: in vitro
# Tested at: not given
# Setting: 8-mer, flanks averaged, mean of replicates
# Direction: higher = stronger binding
Sequence,E-score
AACCTGCA,-0.0963
CGTTCCTA,0.0467
AGCGTGGA,-0.125
CTGCATAA,0.197
CAAAAGGG,-0.0775
CTATTATC,0.274
GAAAAATA,0.359
TGCAGGCA,-0.0529
CGAAAATA,0.248
AGCCATAT,0.251
TATAGGAA,0.285
ATGTGACA,0.158
CCACGCAA,-0.179
CTCCAATA,0.207
CGATCCCG,-0.339
TAAGTTCA,0.137
CCTAGCAC,-0.0726
CCACTTAC,-0.0401
CCTATCTA,0.0762
GCCACTAA,-0.0226
ATCATTAG,0.204
ACATCGGA,-0.0331
CACCGGTC,-0.246
ACATGTCT,0.188

# Block 3
# Target: Histone acetyltransferase KAT6A, winged helix 1, GST fusion (KAT6A, Homo sapiens, UniProt Q92794, residues 1-85)
# Method: protein binding microarray
# Form: double-stranded DNA, one strand shown
# Medium: in vitro
# Tested at: not given
# Setting: 8-mer, flanks averaged, mean of 2 arrays, mostly near background
# Baseline: not given
# Direction: higher = stronger binding
# Construct (chain): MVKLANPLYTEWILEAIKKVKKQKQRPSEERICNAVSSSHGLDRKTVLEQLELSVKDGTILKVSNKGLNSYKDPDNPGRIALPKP
Sequence,E-score
CAGTGAAC,-0.177
CGGAACCA,0.0396
GTAGGGAC,0.123
AAGTGACT,-0.101
CTACCGTC,0.217
AGCATCTA,0.0409
CTGGACAC,-0.297
CTCTCGAA,-0.273
CGACCGTC,0.201
CTATTTTC,-0.163
GCCGTTAA,0.208
CATAAGCA,-0.0258
GCTACTTA,-0.136
TCACGAAA,-0.0449
ATCCCCAA,-0.29
AGAGCTCG,0.00524
CAGGTTCC,-0.0412
TAAGTCTA,-0.00984
GTAGTTTA,-0.0318
CACTGACA,-0.152
CAGTTACA,-0.0645
ACCCAATG,-0.111
CTTCTGAC,-0.0888
ACGCATCA,0.0759
TACCGGTA,0.272

# Block 4
# Target: RNA binding protein fox-1 homolog 2, RRM domain, GST-SBP tag (RBFOX2, Homo sapiens, UniProt O43251-10, residues 100-194)
# Method: RNA Bind-n-Seq
# Form: RNA
# Medium: in vitro
# Tested at: 365 nM
# Setting: natural RNA segment, single round, ends assumed
# Baseline: no-protein control
# Direction: higher = stronger binding
# Constant ends, left off below: GGGAGUUCUACAGUCCGACGAUC … UGGAAUUCUCGGGUGCCAA
# Residues (chain): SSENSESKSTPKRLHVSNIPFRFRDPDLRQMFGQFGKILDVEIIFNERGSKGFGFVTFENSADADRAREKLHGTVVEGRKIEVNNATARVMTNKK
Sequence,RBNS enrichment (R)
AUAAUUGUGGAAGCAGAUUCAUUGCUAGUUUAGUUUCAUAUAUAAUAUAUACAGUAAUUGUAGGGUCAUACCUCAAAUGCUGGUAUCUUACUUGGCCAUGGGGUUGCUUG,1.04
UGGGCUAUAUGCUGGUUAGGGAAUUCAGCAAAGACCUUGAUUAGAGACCAUGCCCACUGGAUAGAUGGGCAGAGAACCAGCACCUAAAGAACACCUACUGUGUGCCAGGC,0.535
UAUAAAAGUUUUCUUGUGUUUUUCUGUGAGUGAAAAUUUUGUAAUAAAUUAACAAAUUUGUACAAUUUCCUCUGUCCCUUGUUAUACAUCCCUGCAUACAUCUUUUCACC,1.35
UCCAAAUUCCAGGAAGGUGCAGAGAUGCCUCUGAGCCCCGAGGAAAAGAAUCCCUUGAGCAUCUCCCUAGGAGUCCACCCCCUGGAUUCCUUUACUCAAGGGUUUGGGGA,0.214
UGCAGAAGAGACAUGCAGCAGUAGCGCUGGCGCCAUCUGCAGGAGCUGGCGGGCUGGCCUUCUGGACCCUGGCUUCUCCCCACUGUAACGCCUGUUACACACAAACUGUU,0.444
GGCUUCCUCUAUGGAUGCUUCCAGCGGACAACCACCAUCUCUGUGUCUCUCUCAUUCUCUCUUCACCUGCCAUAGCAAAGAAACAUCCCAGAAUCGACCCUUCUCCCAUU,0.736
GAAAGUCUGAAAGUUGAUAAGCUAGUUCGACUCCUUUAUAAUGAGAACCUGACAUCAGAGGAGAGUGUGAUUUACCUGGGCUCAUAUAAUUAGAAGCAUCUCCAGGCCUG,1.6
GAUAGUUGCAAGUUCUUUAUGCACCUUCUACCCCUUCUGAGCCACUACUAUUCAAGCAGAGAUUUUGUCUAAUAGAACAUGCCUUUCUUGCUUUUGCUUCUUUUCUUUUG,0.686
GUGGCCACUUAUUAUUACCUAAAGAAAACAUUUGUUCCCUGUUCAUUUUAUUUUAGGGGCCAGAUCUAACAUUGUAGUGUCUUUCACCAGAUAGACUUCUACUGUUUCAU,0.26
CUUUUCCUAGUUGUCCUGGUGCUAAAAUGGAAGCUACACCUUGAUCUCUCCUGGCAUGAAAAUAAAGGAUUUUGUUGUUCCACUGCCCACUUCCCCCAUGUUGUCUUUCC,1.58
UGCUGACUCUUGGAGAGGACCAAAUUACUUUGUAGUAUUUCCCCCGUUUGUGUAAUGUCCUGAAACCUUGGAGAGGUUCCAGAAUACUUCUGUAUAUAGGGCACAGGUGA,0.662
CUUCAGCAACAGCAAAGUGCUACGUAAAUGUAAAGUGUUGUUUUUAGCUAAUAAUGGAUUUAAGUGUUUGGAUAAUUGUAGAUGCAUUUACUUUGAUAAAGCGUGUGCUU,2.05

# Block 5
# Target: Interferon regulatory factor 7, full length, phosphomimetic (IRF7, Homo sapiens, UniProt Q92985, residues 1-503, S471D/S472D/S475D/S476D/S477D/S483D/S484D/S487D)
# Method: protein-binding microarray
# Form: double-stranded DNA, one strand shown
# Medium: in vitro
# Tested at: 2200 nM top
# Setting: 60-bp whole probe
# Added: salmon DNA 0.4 mg/ml
# Baseline: random background probes
# Direction: higher = stronger binding
# Constant ends, left off below: GCCTAGCAC … GTCTTGATTCGCTTGACGCTGCTG
# Residues (chain): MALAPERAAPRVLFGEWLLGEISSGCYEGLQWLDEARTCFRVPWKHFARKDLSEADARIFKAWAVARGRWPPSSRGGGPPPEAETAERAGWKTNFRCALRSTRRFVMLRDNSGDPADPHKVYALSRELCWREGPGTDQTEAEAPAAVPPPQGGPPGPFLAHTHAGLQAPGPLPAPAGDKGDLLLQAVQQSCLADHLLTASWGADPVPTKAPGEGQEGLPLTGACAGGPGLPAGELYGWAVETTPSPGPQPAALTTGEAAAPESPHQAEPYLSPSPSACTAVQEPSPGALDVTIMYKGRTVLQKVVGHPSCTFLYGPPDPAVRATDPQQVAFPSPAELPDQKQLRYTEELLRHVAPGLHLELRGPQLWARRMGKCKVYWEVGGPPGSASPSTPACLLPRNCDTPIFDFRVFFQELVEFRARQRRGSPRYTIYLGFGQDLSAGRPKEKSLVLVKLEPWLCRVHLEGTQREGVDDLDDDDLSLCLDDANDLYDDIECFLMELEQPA
Sequence,fitted relative affinity
TCAATTTTCTGAATGCCACTGTGCTAG,2.91 z-score
ACAAGTTTTTATTTTCTGAAGTGCTAG,1.51 z-score
TTAGGTTTCAACTATCGGTTAGTGCTA,0.755 z-score
GACGGACTGGACTATTGGGACGTGCTA,-0.941 z-score
TTAGGTATCAACTTTCGGTTAGTGCTA,6.67 z-score
GACGATTTCAGTTTCGAGAGGTGCTAG,4.09 z-score
CTATCTCTGTTTTTGCTTTCGTGCTAG,4.34 z-score
TCATATATCCATTATAGACTGTGCTAG,1.18 z-score
GGATGACTCCCTCTCTGGCCGTGCTAG,0.185 z-score
TCAATTATATCTGTGTTACTGTGCTAG,0.839 z-score
CTAGGTATCCTTCTCCTTTAGTGCTAG,1.07 z-score
TTTTTTTTCATCATTGCCTGGTGCTAG,2.46 z-score
TTAGGAGTGGGACTGGGTTAGTGCTAG,-0.687 z-score
TTACATTTCAGTCTCGATTAGTGCTAG,2.5 z-score
GACGGTTCCCCTTTCCTGACGTGCTAG,2.16 z-score
GACGGTTTCCGTCTCCTGACGTGCTAG,3.13 z-score
TTAGGTTCCTTTTTCCTTTAGTGCTAG,3.51 z-score
GACGAACTGCGTTTCGAGACGTGCTAG,1.13 z-score
TTAAAAAAAAAAAACTGTAACGTGCTA,-2.23 z-score
ATAGGTATCGACTTTCGGTTAGTGCTA,6.27 z-score
TTAGAACTGGGGAATGGATTAGTGCTA,-0.461 z-score
GTTGCTCTCTCACCACCTTCGTGCTAG,2.03 z-score
GAGGGACTGCTACTGCTGACGTGCTAG,-0.681 z-score
TTAGGTTTCCTACTGCTTTAGTGCTAG,1.29 z-score
GACGGTTTCGGTTCCGCGACGTGCTAG,11.5 z-score

# For quick reference, copied from above (block 1):
Sequence,7-mer Z-score
GGAAAAA,12
AAUAAUG,0.492
UACACCU,-0.291
UGCUACC,-0.371
GCCGAUU,-0.257
